{"data": "Published values from different studies", "chain of UniProt Q13546 (whole entry, looked up)": "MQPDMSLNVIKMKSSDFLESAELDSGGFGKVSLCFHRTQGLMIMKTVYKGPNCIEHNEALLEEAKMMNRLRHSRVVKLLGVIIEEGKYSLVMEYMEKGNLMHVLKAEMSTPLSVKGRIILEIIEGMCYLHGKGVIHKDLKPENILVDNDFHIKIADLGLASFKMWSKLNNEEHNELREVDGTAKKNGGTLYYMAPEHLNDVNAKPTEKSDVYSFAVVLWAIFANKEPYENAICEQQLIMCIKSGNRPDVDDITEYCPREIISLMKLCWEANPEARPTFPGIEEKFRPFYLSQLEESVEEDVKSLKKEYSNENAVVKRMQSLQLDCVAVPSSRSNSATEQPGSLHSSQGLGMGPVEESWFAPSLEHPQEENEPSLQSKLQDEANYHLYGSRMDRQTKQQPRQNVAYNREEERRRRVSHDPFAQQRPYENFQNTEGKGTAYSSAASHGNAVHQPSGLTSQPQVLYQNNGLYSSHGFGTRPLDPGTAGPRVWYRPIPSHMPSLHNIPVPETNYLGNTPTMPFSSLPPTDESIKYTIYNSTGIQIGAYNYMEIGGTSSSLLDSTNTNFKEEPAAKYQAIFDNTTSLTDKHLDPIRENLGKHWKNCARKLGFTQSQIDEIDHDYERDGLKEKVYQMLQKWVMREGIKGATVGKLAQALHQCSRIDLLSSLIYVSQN"}
{"SMILES": "CC[C@H](C)[C@H]1C(=O)N[C@@H](CO)C(=O)N[C@@H](CC(C)C)C(=O)NCC(=O)N2CCC[C@H]2C(=O)N[C@@H](CC(C)C)C(=O)N[C@@H]([C@@H](C)O)C(=O)N[C@@H](CC(C)C)C(=O)N[C@@H](CC(=O)O)C(=O)N[C@H](Cc2ccc(O)cc2)C(=O)N2CCC[C@@H]2C(=O)N[C@H](Cc2ccc(O)cc2)C(=O)N1C", "test system": "aqueous buffer", "conditions": "18 h, pH 7.4", "endpoint": "thermodynamic solubility", "value": "412 µM"}
{"SMILES": "C[C@]12CC[C@H]3[C@@H](CC=C4CC(O)CC[C@@]43CO)[C@@H]1CCC2O (stereo partly shown)", "test system": "water", "endpoint": "solubility", "value": "301 µM"}
{"SMILES": "[2H]c1c([2H])c([C@]2([2H])CCCN2C(=O)C(C)(C)Oc2ccc3cn[nH]c3c2)c([2H])c([2H])c1C([2H])([2H])[2H]", "tested on": "Receptor-interacting serine/threonine-protein kinase 1 (RIPK1, Homo sapiens, UniProt Q13546)", "assay": "binding, competition with immobilised ligand", "conditions": "1 µM", "endpoint": "remaining binding", "value": "1.1%"}
{"SMILES": "C#Cc1ccc2c(c1)C(c1ccccn1)=NCc1c(-c3cnco3)ncn1-2", "test system": "water", "conditions": "20 min, 37 °C", "endpoint": "kinetic solubility", "value": "240 µg/mL"}
{"SMILES": "CC(C)N(CCc1c[nH]c2cccc(O)c12)C(C)C", "test system": "aqueous buffer", "conditions": "pH 5", "endpoint": "solubility", "value": "1000 to 2000 µg/mL"}
{"SMILES": "CC(C)C[C@@H]1C(=O)N[C@@H](Cc2ccccc2)C(=O)N2CCC[C@H]2C(=O)N[C@@H]([C@@H](C)O)C(=O)N[C@@H](C(C)C)C(=O)N[C@H]([C@H](C)O)C(=O)N[C@@H](Cc2ccccc2)C(=O)N[C@@H](CCC(N)=O)C(=O)N[C@H](C(=O)O)CSSC[C@H](N)C(=O)N1C", "test system": "aqueous buffer", "conditions": "18 h, pH 7.4", "endpoint": "solubility", "value": "457 µM"}
{"SMILES": "CC1(C)NC(=O)N(c2cc(Cl)c(F)c(C(F)(F)F)c2)C1=O", "assay": "nephelometry", "test system": "aqueous buffer", "endpoint": "kinetic solubility", "value": "≤ 50 µg/mL"}
{"SMILES": "COc1cc(C(=O)c2nc(-c3cccc4[nH]ccc34)c[nH]2)cc(OC)c1OC", "test system": "PBS", "conditions": "pH 7.4", "endpoint": "kinetic solubility", "value": "4.61 µM"}
{"SMILES": "CC(C)C[C@@H]1NC(=O)[C@H](CCCNC(=N)N)NC(=O)[C@H]2CCCN2C(=O)[C@@H](N)CSSC[C@@H](C(=O)O)NC(=O)[C@@H]2CCCN2C(=O)[C@H](Cc2ccccc2)NC(=O)[C@H](CC(C)C)NC(=O)[C@H]([C@@H](C)O)NC(=O)[C@H](C(C)C)NC1=O", "test system": "aqueous buffer", "conditions": "18 h, pH 7.4", "endpoint": "solubility", "value": "871 µM"}
{"SMILES": "COc1ccc([C@@]23Oc4cc(OC)cc(OC)c4[C@@]24NC(C)=N[C@@]4(O)[C@H](C(=O)N(C)OC)[C@H]3c2ccccc2)cc1", "test system": "aqueous buffer", "conditions": "pH 7.4", "endpoint": "kinetic solubility", "value": "> 83 µg/mL"}
{"SMILES": "Nc1nc(N)c(OCCCOc2ccccc2CCC(=O)O)c(-c2ccccc2)n1", "test system": "PBS", "conditions": "24 h, pH 7.4", "endpoint": "solubility", "value": "51 µM"}
{"SMILES": "CC(C)C[C@H]1C(=O)N[C@@H](C(C)C)C(=O)N[C@@H](Cc2ccccc2)C(=O)N[C@H](CC(=O)O)C(=O)N2CCC[C@@H]2C(=O)N[C@H](CCC(=O)O)C(=O)N[C@H](C(=O)O)CSSC[C@@H](N)C(=O)N[C@@H](CCC(=O)O)C(=O)N2CCC[C@H]2C(=O)N1C", "test system": "aqueous buffer", "conditions": "18 h, pH 7.4", "endpoint": "thermodynamic solubility", "value": "613 µM"}
{"SMILES": "COc1ccc([C@@]23Oc4cc(OC)cc(OC)c4[C@@]24N=C(C2CC2)N[C@@]4(O)[C@H](C(=O)N(C)OC)[C@H]3c2ccccc2)cc1", "test system": "aqueous buffer", "conditions": "6 h, pH 7.4", "endpoint": "kinetic solubility", "value": "45 µg/mL"}
{"note": "Excerpt of the above:"}
{"SMILES": "CC1(C)NC(=O)N(c2cc(Cl)c(F)c(C(F)(F)F)c2)C1=O", "assay": "nephelometry", "test system": "aqueous buffer", "endpoint": "kinetic solubility", "value": "≤ 50 µg/mL"}
